Measurements gathered from unrelated publications.
Every numbered part comes from another study and shows a few of its results, in no order. Positions count from the first letter of the parent shown.

Sample 1
Target: ABI1, truncated, D143A, DHFR fusion (Arabidopsis thaliana)
Technique: DHFR PCA, deep sequencing
Sample: yeast
Setting: methotrexate growth selection, single substitutions
With: (+)-ABA 0.11 µM
Relative to: wild-type fitted maximum
Direction: higher = stronger binding
Starting sequence: PYL1, truncated, DHFR fusion (Arabidopsis thaliana); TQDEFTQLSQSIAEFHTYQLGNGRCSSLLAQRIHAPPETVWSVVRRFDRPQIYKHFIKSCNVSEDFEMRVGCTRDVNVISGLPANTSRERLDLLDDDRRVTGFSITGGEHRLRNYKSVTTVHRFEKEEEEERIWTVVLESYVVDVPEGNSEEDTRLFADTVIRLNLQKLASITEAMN; partner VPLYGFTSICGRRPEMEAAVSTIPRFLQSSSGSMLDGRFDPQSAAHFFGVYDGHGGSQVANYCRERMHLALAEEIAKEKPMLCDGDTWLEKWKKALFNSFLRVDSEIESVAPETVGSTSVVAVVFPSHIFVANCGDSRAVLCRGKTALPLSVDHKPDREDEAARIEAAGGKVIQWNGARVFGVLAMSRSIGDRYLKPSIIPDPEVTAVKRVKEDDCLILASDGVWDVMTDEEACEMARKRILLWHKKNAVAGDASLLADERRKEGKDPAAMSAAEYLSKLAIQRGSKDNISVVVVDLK
For `L20E`, “relative binding score” read 36.4%.
For `G148H`, “relative binding score” read -5.41%.
For `D65T`, “relative binding score” read 9.28%.
Under “relative binding score”, `I57H` is recorded as -5.46%.
`S27G`: “relative binding score” 55.4%.
`L20S` — result for “relative binding score”: 40.6%.
`R111L`: “relative binding score” 5.89%.
For `R99W`, “relative binding score” read 72.2%.
`G148V` — result for “relative binding score”: -0.471%.
Under “relative binding score”, `S87D` is recorded as 2.87%.
`Q19M`: “relative binding score” 10.2%.
For `D97P`, “relative binding score” read -6.88%.
For `A35I`, “relative binding score” read -0.098%.
For `N61V`, “relative binding score” read 53%.

Sample 2
Target: Interferon regulatory factor 7, full length, phosphomimetic (IRF7, Homo sapiens, UniProt Q92985, residues 1-503, S471D/S472D/S475D/S476D/S477D/S483D/S484D/S487D)
Sequence of UniProt Q92985 (whole entry, unmodified, looked up): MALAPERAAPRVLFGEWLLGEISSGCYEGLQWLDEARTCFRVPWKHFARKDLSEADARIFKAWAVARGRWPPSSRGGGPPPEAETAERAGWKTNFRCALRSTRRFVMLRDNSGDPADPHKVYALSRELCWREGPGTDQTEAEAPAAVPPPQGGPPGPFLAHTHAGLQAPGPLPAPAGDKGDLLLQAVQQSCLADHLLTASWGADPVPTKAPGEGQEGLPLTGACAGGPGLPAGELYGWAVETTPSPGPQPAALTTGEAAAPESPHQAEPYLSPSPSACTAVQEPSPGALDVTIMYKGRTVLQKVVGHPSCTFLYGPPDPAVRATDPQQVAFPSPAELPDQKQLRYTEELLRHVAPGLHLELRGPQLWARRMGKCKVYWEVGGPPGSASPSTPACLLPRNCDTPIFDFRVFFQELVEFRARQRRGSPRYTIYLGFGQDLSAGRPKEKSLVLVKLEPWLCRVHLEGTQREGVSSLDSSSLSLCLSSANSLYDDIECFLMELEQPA
Technique: protein-binding microarray
Molecule type: double-stranded DNA, one strand shown
Sample: in vitro
Tested at: 2200 nM top
Setting: 60-bp whole probe
With: salmon DNA 0.4 mg/ml
Relative to: random background probes
Direction: higher = stronger binding
Shared flanks, not repeated: GCCTAGCAC … GTCTTGATTCGCTTGACGCTGCTG
`CAAAGAAAAAGAAAAAAAAAGGTGCTA`: “fitted relative affinity” -1.74 z-score.
For `GACAAACTGGGGTTTCGAGACGTGCTA`, “fitted relative affinity” read 1.37 z-score.
`TTAGGTATCGTCACTGGGTTAGTGCTA`: “fitted relative affinity” 0.216 z-score.
`TCAGCTACCTCTCTTAGACTGTGCTAG`: “fitted relative affinity” 0.587 z-score.
`GACGGTTTCCAACTGCTGACGTGCTAG` — result for “fitted relative affinity”: 1.84 z-score.
`GACGATATCGGCTTTCGAGACGTGCTA`: “fitted relative affinity” 1.47 z-score.
For `TTCGATCTCAGACTGGATTAGTGCTAG`, “fitted relative affinity” read 0.597 z-score.
Under “fitted relative affinity”, `TTAGGTTTCCTTATCATTTAGTGCTAG` is recorded as 1.59 z-score.
For `TTTGCTCTGTGCATAGGCCTGTGCTAG`, “fitted relative affinity” read 0.691 z-score.
For `TTAGGTTTCCTTTCGCTTTAGTGCTAG`, “fitted relative affinity” read 8.49 z-score.
For `GCAGGAGAGACAGAAGTTATGTGCTAG`, “fitted relative affinity” read -1.05 z-score.
`TCACTTTCCTTTATGTAACTGTGCTAG`: “fitted relative affinity” 5.53 z-score.
For `TTAGATATCGGGTTTTGATTAGTGCTA`, “fitted relative affinity” read 0.661 z-score.
For `TTAGCTTCCGGTTTCGGTTAGTGCTAG`, “fitted relative affinity” read 8.22 z-score.
`TGAGGACTGGGTCTCGGTTAGTGCTAG` — result for “fitted relative affinity”: -0.67 z-score.
`TTAGATATCAGTCTCGATGAGTGCTAG` — result for “fitted relative affinity”: 0.007 z-score.
Under “fitted relative affinity”, `TTAGGTAGCGGTATCGGTTAGTGCTAG` is recorded as -0.169 z-score.
Under “fitted relative affinity”, `TTAGAACTGAGTATCGATTGGTGCTAG` is recorded as -0.0193 z-score.
Under “fitted relative affinity”, `TTAGATATCGGTTTCGATTAGTGCTAG` is recorded as 5.15 z-score.
`GACGATCTCAGCTTCGAGACGTGCTAG`: “fitted relative affinity” 0.17 z-score.
For `GATGGACTGGGGTTTCGGGACGTGCTA`, “fitted relative affinity” read 0.695 z-score.
`TTAAGACTGGGGTTTCGGTTAGTGCTA` — result for “fitted relative affinity”: 3.1 z-score.
Under “fitted relative affinity”, `AGACGAATCATATCAAAATTGTGCTAG` is recorded as -0.806 z-score.
`TCCACTTTGACTTAAGAGGCGTGCTAG` — result for “fitted relative affinity”: 0.854 z-score.
Under “fitted relative affinity”, `GACGGACTGCTCATCCTGACGTGCTAG` is recorded as 0.311 z-score.

Sample 3
Target: Fragile X messenger ribonucleoprotein 1, C-terminal low-complexity region (Fmr1, Mus musculus, UniProt P35922)
Technique: RNA Bind-n-Seq
Molecule type: RNA
Sample: in vitro
Tested at: 200 nM
Setting: whole 134-nt RNA, ends assumed
With: 150 mM LiCl
Relative to: input library
Direction: higher = stronger binding
Each molecule: 7-deaza-guanosine replaces G
`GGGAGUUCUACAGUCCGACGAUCCCUCAAGUCCUGUGCUACACAUCGUAUGUACCGAAUCGGAAAAAGGAGGAGGAAAGUAUUAUGUUACGCCGUUCGGAUCUGCACUUCCAGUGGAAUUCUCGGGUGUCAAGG` has a log2 enrichment of -0.488.
`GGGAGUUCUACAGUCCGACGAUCUUUCCAGCAGUACCAGCUCCAGCCAGGAUCACCCUCUCUACUCUGGGCACCCAUCCCUUCCACUAAGUGGUGCUAUUGCUGCUUUUGCCUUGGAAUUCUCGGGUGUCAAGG` gave a log2 enrichment of 1.62.
`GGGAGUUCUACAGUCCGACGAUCUGGGUGAAGAGGGACAGUUACCUUCCUGUGGGCAGUCAUAAUCUCAAGGCGGCCGCCAAGGCCAAGCUAGGCUAUGAUCCCGUGGAGCUAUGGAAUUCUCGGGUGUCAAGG` gave a log2 enrichment of -1.38.
`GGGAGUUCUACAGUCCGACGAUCAGUCCUGUGCUACACAUCGUAUGUACCGAAUCGGGUUUUUGGGAGGGAAAAAAAGGGAAAGUAUUAUGUUACGCCGUUCGGAUCUGCACUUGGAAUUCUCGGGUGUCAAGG` gave a log2 enrichment of -1.51.
With `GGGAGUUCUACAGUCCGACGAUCUCCUCAAGUCCUGUGCUACACAUCGUAUGUACCGAAUCGGAGGGAGGAGGGGAAAGUAUUAUGUUACGCCGUUCGGAUCUGCACUUCCAGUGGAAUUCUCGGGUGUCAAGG` the log2 enrichment was -0.408.
With `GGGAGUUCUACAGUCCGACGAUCAGUCCUGUGCUACACAUCGUAUGUACCGAAUCGGGUGGGAAAAAGGGAAAAAAAGGGAAAGUAUUAUGUUACGCCGUUCGGAUCUGCACUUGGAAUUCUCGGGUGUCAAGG` the log2 enrichment was -0.545.
The log2 enrichment of `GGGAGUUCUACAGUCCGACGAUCUGGCCCUGGUGGCAUGCGGGGCGGAAGAGGUGGCCUCAUGGAUCGUGGUGGUCCCGGUGGAAUGUUCAGAGGUGGCCGUGGUGGAGACAGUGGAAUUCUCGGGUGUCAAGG` is reported as 0.379.
`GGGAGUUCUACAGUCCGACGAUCCAAGUCCUGUGCUACACAUCGUAUGUACCGAAUCGGGAAAGGGAAAGGGAAAGGGGAAAGUAUUAUGUUACGCCGUUCGGAUCUGCACUUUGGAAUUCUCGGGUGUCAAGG` has a log2 enrichment of -0.928.
For `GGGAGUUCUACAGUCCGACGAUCUAGCUAAACUAAUGUCAACUUAUUUCCUUUUUUCCUUUAGCCACCAUCAAAGAACAGACGAGAGAGAACAGAACUGAAGCCUGAUUUCUUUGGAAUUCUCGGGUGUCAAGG`, the log2 enrichment was -1.28.
The log2 enrichment of `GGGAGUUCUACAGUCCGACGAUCACCAUGCAGGUGGGCAUCUUUGGGAAGUGGGGCAAGGGGGGGAUAGGGAGGGGGGUAACACUUUGGGAACAGGUGCUCCCAGGUCGUUUCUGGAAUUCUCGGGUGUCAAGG` is reported as 1.38.
`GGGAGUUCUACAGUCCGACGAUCGCUGGAAGUAAAAACAAAUGGAAAUGCUUCGGAUAGUGGCAGGGGUGGGGGUUGCUAAGGAAAGGGUGGGAUGGGAGUGGGUAAAGAGUUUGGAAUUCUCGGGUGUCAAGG` has a log2 enrichment of 1.5.

Sample 4
Target: CCNA2, cyclin fold, Cln2 fusion (human)
Technique: yeast growth competition, sequencing
Sample: yeast
Setting: weak parent motif
Relative to: not given
Direction: higher = stronger binding
Starting sequence: MASTL docking peptide (human); PMIAKNLMCELDE
`D12W` — result for “normalised enrichment score”: 0.0341.
For `K5S`, “normalised enrichment score” read -0.615.
`E10S`: “normalised enrichment score” -0.0936.
`N6S`: “normalised enrichment score” -0.417.
`L11T` — result for “normalised enrichment score”: -0.292.
`D12I` — result for “normalised enrichment score”: -0.445.
`L11M` — result for “normalised enrichment score”: -0.566.
`D12N` — result for “normalised enrichment score”: 0.0573.
`E10Y`: “normalised enrichment score” 0.428.
`A4S` — result for “normalised enrichment score”: -0.292.
Under “normalised enrichment score”, `L11Y` is recorded as 0.348.
`K5C`: “normalised enrichment score” -0.315.
Under “normalised enrichment score”, `A4I` is recorded as -0.0808.
Under “normalised enrichment score”, `L11R` is recorded as -0.296.
Under “normalised enrichment score”, `A4R` is recorded as 0.645.
`A4F` — result for “normalised enrichment score”: -0.106.
`A4G`: “normalised enrichment score” -0.335.
Under “normalised enrichment score”, `C9M` is recorded as -0.187.
Under “normalised enrichment score”, `M8C` is recorded as -0.638.

Further values, each from its own experiment
`PhoQ, residues 284 288 289 292 302 303 TTCLQL` has a fold induction of 8.81 (PhoP, residues 12 14 15 18 19 GHCSL (Escherichia coli, UniProt P23836); Sort-seq, measured: YFP reporter; E. coli; PhoQ-PhoP variant library, with: 10 µM Mg2+; relative to: high Mg2+ state, higher = stronger signaling).

For quick reference, copied from above (sample 2):
`TCAGCTACCTCTCTTAGACTGTGCTAG`: “fitted relative affinity” 0.587 z-score.
`TCCACTTTGACTTAAGAGGCGTGCTAG` — result for “fitted relative affinity”: 0.854 z-score.
`CAAAGAAAAAGAAAAAAAAAGGTGCTA`: “fitted relative affinity” -1.74 z-score.
`TTAGGTATCGTCACTGGGTTAGTGCTA`: “fitted relative affinity” 0.216 z-score.
